Measurements from different studies.
Every numbered part comes from another study and shows a few of its results, in no order. Substitutions count along the parent as printed.

Series 1 — target: CCND2, cyclin fold, Cln2 fusion (human); technique: yeast growth competition, sequencing; sample: yeast; notes: weak parent motif; reference: not given; reading: higher = stronger binding
Starting sequence: PKMYT1 docking peptide (human); SFEPRNLLSLFED
Change | normalised enrichment score
SFEPRLLLSLFED [N6L] | 0.311
FFEPRNLLSLFED [S1F] | -0.157
SAEPRNLLSLFED [F2A] | -0.0716
SFEPDNLLSLFED [R5D] | 0.0956
SFEPRNLLSLFEL [D13L] | 0.032
SFEPRNLLWLFED [S9W] | 0.256
SFEPRNLLSLFID [E12I] | 0.434
SFEYRNLLSLFED [P4Y] | 0.18
SFEPRNLCSLFED [L8C] | -0.114
SFEPRNLLSLFDD [E12D] | 0.0829
SFEPRNLLSLEED [F11E] | 0.00574
SFEPRNLLSLAED [F11A] | 0.451
SFEPRHLLSLFED [N6H] | 0.21

Series 2 — technique: RNA Bind-n-Seq; molecule type: RNA; sample: in vitro; concentration: 1 µM; notes: whole 134-nt RNA, ends assumed; with: 150 mM KCl; reference: input library; reading: higher = stronger binding
Target: Ras GTPase-activating protein-binding protein 1, C-terminal RGG region (G3BP1, Homo sapiens, UniProt Q13283)
Chain of UniProt Q13283 (whole entry, looked up): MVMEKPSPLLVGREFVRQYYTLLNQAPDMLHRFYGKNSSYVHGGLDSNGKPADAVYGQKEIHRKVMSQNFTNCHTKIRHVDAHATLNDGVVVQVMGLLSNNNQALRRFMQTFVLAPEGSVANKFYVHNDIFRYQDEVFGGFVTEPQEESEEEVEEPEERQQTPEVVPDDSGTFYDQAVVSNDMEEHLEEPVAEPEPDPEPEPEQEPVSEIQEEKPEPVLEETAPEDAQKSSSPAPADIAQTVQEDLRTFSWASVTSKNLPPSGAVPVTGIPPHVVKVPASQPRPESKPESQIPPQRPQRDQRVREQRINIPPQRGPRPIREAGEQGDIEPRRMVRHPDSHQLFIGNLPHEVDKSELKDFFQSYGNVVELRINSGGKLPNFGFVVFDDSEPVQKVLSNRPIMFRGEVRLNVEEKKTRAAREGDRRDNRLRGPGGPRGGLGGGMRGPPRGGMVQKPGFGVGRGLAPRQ
Constant ends, left off below: GGGAGUUCUACAGUCCGACGAUC … UGGAAUUCUCGGGUGUCAAGG
Strand | log2 enrichment
UCCUGUGCUACACAUCGUAUGUACCGAAUCGGGUUUUUUUGGUUUUUUUGGUUUUUUUGGAAAGUAUUAUGUUACGCCGUUCGGAUCUGC | -0.458
CAAGUCCUGUGCUACACAUCGUAUGUACCGAAUCGGGCCCCGGGCCCCGGCCCCGGAAAGUAUUAUGUUACGCCGUUCGGAUCUGCACUU | -1.99
UGGGAGGUGGAUUUUGUUUAUUUUUUUAGCUCAUUUCCAGGGGUGGGAAUUUUUUUUUAAUAUGUGUCAGGAAUAAAGUUGUUUUUGAAA | 3.51
AAGUCCUGUGCUACACAUCGUAUGUACCGAAUCGGGUUUGGGAAAGGGUUUUUGGGAAAGUAUUAUGUUACGCCGUUCGGAUCUGCACUU | 1.64
UGGCCCUGGUGGCAUGCGGGGAGGAAGAGGUGGCCUCAUGGAUCGUGGUGGUCCCGGUGGAAUGUUCAAAGGUGGCCGUGGUGGAGACAG | 3.64
CAAGUCCUGUGCUACACAUCGUAUGUACCGAAUCGGUUUUUGGAAAAAAAGGUGGAAAGUAUUAUGUUACGCCGUUCGGAUCUGCACUUC | -1.59
CUCAAGUCCUGUGCUACACAUCGUAUGUACCGAAUCGGAAGGGGAAGGAAGGGGAAAGUAUUAUGUUACGCCGUUCGGAUCUGCACUUCC | 0.356
AAGUCCUGUGCUACACAUCGUAUGUACCGAAUCGGGUGGGUUUUUUUGGGAAAGGGAAAGUAUUAUGUUACGCCGUUCGGAUCUGCACUU | -0.0703
CACAGACAAGACGCACCCACACAGACACAGAGGGAAGGGGUUGGGAUGGGGACAGGGUGCACAGCAGGGCGGGGUAGGACCCCAGCCCCU | -0.25
UCCUCAAGUCCUGUGCUACACAUCGUAUGUACCGAAUCGGUGGAAAGGAGGAAAGUAUUAUGUUACGCCGUUCGGAUCUGCACUUCCAGC | -1.12
CAAGUCCUGUGCUACACAUCGUAUGUACCGAAUCGGAAAGGGGAAAGGGAAAGGGGAAAGUAUUAUGUUACGCCGUUCGGAUCUGCACUU | -0.0936
CACAGACAACACGCACCCACACACACACAGAGGGAAGGGGUUGGGAUGGGGACAGGGUGCACAGCAGGGCGGGGUAGGACCCCAGCCCCU | -0.332
UGGCCCUGGUGGCAUGCGGGGAGGAAGAGGUGGCCUCAUGGAUCAUGGUGGUCCCGGUGGAAUGUUCAGAGGUGGCCGUGGUGGAGACAG | 2.62
GUCCUGUGCUACACAUCGUAUGUACCGAAUCGGGCCCCCCGGGCCCCCCGGCCCCCCGGAAAGUAUUAUGUUACGCCGUUCGGAUCUGCA | -1.19

Series 3 — technique: protein-binding microarray; molecule type: double-stranded DNA, one strand shown; sample: in vitro; concentration: not given; reading: higher = stronger binding
Target: Protein C-ets-1 (ETS1, Homo sapiens, UniProt P14921, residues 1-441, full length assumed)
Notes: k-mer, scored over probes, only values ≥0.25
Residues (chain): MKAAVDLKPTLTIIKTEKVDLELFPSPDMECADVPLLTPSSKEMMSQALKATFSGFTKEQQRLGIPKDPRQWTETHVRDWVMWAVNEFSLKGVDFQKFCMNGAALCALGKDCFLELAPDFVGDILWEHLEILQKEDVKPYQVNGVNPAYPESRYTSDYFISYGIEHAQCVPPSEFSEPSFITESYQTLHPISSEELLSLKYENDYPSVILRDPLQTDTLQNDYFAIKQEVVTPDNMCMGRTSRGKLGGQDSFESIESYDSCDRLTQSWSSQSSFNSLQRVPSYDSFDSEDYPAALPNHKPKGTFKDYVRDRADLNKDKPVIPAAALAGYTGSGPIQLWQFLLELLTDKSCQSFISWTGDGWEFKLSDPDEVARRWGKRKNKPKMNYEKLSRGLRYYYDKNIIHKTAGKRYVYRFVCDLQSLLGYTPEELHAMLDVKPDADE
Strand | E-score
CGGAACCA | 0.344
AGCAGGAA | 0.433
CGGATGAC | 0.399
GCACTTCC | 0.461
GATCCGGA | 0.419
ATCCGTCA | 0.329
CCGGACCC | 0.257
CATAGGAA | 0.315
CCGGAACA | 0.449
AACGGAAC | 0.355
TCCTTCCA | 0.291

Further values, each from its own experiment
Substance | target | test | test system | conditions | how to read | measurement | value
PhoQ, residues 284 288 289 292 302 303 AQGLTV | PhoP, residues 12 14 15 18 19 VQALL (Escherichia coli, UniProt P23836) | Sort-seq, item: YFP reporter | E. coli | PhoQ-PhoP variant library, with: 10 µM Mg2+ | reference: high Mg2+ state, higher = stronger signaling | fold induction | 20.2

Repeated from above (series 2):
Strand | log2 enrichment
CAAGUCCUGUGCUACACAUCGUAUGUACCGAAUCGGGCCCCGGGCCCCGGCCCCGGAAAGUAUUAUGUUACGCCGUUCGGAUCUGCACUU | -1.99
CAAGUCCUGUGCUACACAUCGUAUGUACCGAAUCGGUUUUUGGAAAAAAAGGUGGAAAGUAUUAUGUUACGCCGUUCGGAUCUGCACUUC | -1.59
CAAGUCCUGUGCUACACAUCGUAUGUACCGAAUCGGAAAGGGGAAAGGGAAAGGGGAAAGUAUUAUGUUACGCCGUUCGGAUCUGCACUU | -0.0936
AAGUCCUGUGCUACACAUCGUAUGUACCGAAUCGGGUUUGGGAAAGGGUUUUUGGGAAAGUAUUAUGUUACGCCGUUCGGAUCUGCACUU | 1.64
